Experimental data pooled from the literature.
Compare with care: the assays were run in different laboratories. ± marks the error that the study gave.
TLK2: Serine/threonine-protein kinase tousled-like 2 (TLK2, Homo sapiens, UniProt Q86UE8)
UniProt Q86UE8, sequence (whole entry, looked up): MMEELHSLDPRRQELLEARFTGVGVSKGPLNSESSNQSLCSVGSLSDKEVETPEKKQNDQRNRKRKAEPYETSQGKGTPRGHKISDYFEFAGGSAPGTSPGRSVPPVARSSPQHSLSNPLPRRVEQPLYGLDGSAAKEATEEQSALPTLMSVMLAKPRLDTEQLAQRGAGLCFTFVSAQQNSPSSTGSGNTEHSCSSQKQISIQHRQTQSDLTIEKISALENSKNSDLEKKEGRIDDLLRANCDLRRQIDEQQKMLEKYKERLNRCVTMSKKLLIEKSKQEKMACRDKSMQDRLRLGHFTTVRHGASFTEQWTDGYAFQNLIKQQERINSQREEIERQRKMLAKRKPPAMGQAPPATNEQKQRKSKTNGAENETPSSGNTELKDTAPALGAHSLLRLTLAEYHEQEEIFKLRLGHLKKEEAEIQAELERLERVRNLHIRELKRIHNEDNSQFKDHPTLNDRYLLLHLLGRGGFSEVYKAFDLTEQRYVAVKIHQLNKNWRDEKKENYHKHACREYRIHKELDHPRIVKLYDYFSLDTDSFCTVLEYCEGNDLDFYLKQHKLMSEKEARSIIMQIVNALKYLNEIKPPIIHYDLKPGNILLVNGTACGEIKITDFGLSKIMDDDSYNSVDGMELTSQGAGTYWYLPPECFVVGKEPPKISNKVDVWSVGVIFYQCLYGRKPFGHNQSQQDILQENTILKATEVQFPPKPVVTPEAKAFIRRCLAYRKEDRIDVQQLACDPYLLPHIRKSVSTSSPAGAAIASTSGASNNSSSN
UniProt Q96SB4, sequence (whole entry, looked up): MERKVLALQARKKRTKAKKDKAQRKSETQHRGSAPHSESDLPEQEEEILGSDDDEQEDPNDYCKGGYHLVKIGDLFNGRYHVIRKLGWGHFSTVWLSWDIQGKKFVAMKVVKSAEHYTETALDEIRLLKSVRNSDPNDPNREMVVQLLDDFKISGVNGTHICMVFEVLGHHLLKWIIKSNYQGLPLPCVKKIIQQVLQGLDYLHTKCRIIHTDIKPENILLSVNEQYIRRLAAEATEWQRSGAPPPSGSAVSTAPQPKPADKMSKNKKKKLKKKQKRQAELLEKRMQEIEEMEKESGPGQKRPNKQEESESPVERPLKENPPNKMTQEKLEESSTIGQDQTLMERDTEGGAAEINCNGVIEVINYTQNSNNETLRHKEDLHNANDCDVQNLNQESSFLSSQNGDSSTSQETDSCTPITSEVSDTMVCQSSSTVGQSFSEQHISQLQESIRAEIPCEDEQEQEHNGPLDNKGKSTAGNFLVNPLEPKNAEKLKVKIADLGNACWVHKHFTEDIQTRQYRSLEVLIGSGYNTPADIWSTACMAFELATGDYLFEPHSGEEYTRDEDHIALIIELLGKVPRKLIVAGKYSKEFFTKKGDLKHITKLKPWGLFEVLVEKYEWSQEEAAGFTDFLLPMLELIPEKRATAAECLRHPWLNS
UniProt P21709, sequence (whole entry, looked up): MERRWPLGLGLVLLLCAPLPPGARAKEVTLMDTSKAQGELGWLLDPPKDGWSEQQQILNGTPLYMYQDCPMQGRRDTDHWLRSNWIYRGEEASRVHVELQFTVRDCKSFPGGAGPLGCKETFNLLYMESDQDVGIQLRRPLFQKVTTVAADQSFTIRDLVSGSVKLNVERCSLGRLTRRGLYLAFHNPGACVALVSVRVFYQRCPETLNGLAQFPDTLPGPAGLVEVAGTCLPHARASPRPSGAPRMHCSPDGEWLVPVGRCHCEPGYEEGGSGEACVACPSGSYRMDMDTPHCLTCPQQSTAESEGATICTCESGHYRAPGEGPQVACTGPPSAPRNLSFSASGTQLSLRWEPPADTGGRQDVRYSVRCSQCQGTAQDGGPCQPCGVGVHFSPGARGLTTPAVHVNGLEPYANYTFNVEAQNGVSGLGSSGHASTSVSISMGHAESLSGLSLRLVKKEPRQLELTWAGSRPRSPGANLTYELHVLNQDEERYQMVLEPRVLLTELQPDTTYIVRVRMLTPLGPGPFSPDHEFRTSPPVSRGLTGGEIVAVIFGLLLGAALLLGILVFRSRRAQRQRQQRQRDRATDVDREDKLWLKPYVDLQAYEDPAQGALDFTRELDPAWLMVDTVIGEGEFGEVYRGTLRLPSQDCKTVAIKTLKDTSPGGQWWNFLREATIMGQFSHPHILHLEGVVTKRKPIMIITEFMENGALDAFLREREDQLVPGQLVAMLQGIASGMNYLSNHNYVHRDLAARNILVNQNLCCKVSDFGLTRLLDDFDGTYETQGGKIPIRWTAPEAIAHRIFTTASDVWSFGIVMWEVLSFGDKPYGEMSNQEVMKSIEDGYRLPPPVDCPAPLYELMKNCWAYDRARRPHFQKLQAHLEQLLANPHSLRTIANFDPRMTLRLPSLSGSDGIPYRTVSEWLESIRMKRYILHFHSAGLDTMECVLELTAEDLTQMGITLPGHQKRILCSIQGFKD
UniProt P42336, sequence (whole entry, unmodified, looked up): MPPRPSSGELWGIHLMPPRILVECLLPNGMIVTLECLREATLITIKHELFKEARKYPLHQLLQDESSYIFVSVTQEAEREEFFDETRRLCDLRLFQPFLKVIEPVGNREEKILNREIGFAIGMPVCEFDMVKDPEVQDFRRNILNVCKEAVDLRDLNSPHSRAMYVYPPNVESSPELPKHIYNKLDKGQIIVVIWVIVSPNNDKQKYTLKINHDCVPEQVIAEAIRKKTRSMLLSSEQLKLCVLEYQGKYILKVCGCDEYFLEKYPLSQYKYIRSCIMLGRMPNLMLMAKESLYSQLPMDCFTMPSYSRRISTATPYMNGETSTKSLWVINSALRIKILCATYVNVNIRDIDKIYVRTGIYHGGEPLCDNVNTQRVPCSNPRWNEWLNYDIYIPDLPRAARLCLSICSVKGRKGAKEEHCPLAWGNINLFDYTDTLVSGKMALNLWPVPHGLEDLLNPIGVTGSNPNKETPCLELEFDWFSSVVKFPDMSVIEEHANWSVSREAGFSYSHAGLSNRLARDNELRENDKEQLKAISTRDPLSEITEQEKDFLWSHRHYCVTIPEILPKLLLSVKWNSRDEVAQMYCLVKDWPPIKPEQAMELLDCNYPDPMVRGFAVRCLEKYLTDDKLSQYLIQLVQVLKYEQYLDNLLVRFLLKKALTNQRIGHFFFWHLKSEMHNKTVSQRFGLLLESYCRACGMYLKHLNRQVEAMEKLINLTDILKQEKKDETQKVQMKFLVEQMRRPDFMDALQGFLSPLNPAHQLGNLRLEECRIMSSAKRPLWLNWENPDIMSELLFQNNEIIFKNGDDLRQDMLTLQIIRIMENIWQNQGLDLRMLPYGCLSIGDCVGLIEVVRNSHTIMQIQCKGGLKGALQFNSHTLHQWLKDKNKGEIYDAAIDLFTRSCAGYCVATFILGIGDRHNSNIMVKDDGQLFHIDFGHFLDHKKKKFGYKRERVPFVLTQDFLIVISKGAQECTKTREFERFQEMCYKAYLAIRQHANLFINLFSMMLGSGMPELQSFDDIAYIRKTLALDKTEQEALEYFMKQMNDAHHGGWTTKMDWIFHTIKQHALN

O=S(=O)(NCC(F)(F)c1ccc(Cl)c(Cl)c1)c1cccc(Cl)c1O — remaining activity (malate dehydrogenase; enzyme activity, inhibitor; 200 µM, pH 7.0, 1% DMSO, aggregation counter-screen): 103%
O=C(NC1CCC1)c1ccc2nc(-c3cccc(NS(=O)(=O)NCCN4CCCCC4)c3)cn2c1 — remaining activity (PIK3CA (Homo sapiens, UniProt P42336, H1047L); enzyme activity; 10 µM): 93%
CN(C)CCCCCN(C)Cc1cc2ccccc2o1 — inhibition (Trypanosoma cruzi; reporter translation, Renilla luciferase mRNA translation; cell-free extract; 40 µM; relative to: DMSO): 8.1%
CC(=O)OC[C@H]1O[C@@H]([S-])[C@H](OC(C)=O)[C@@H](OC(C)=O)[C@@H]1OC(C)=O.CCP(CC)CC.[Au+] — EC50 (Toxoplasma gondii; parasite growth, luciferase reporter; HFF host cells, tachyzoites; 72 h): 2750 nM
O=C1NCCc2ccc(CNS(=O)(=O)c3cc(Cl)cc(Cl)c3O)cc21 — remaining activity (malate dehydrogenase; enzyme activity, inhibitor; 200 µM, pH 7.0, 1% DMSO, aggregation counter-screen): 81%
CNC(=O)c1ccc(-c2cnc3ncc(Cc4ccc5ncccc5c4)n3n2)cc1F — patients with adverse event (measured: Ascites; hepatocellular carcinoma patients; oral, 600 mg twice daily, expansion cohort, grade 3-4): 9%
Cn1cc(-c2ccc(-c3cncc(Cl)c3N3CCC4(CCNC4=O)CC3)cc2)cn1 — log2 fold change (COLO 205; gene expression, microarray, measured: TNRC18 mRNA; concentration not given, 6 h; relative to: untreated cells): 1.4
CC(C)C[C@H](NC(=O)C[C@H](O)[C@H](CC(C)C)NC(=O)[C@H](Cc1c[nH]cn1)NC(=O)CNC(=O)[C@@H](NC(=O)[C@H](C)NC(=O)[C@H](Cc1c[nH]c2ccccc12)NC(=O)[C@H](CCC(N)=O)NC(=O)[C@@H](Cc1ccccc1)NC(=O)COCCOCCNC(=O)CCC(C(=O)O)N1CCN(CC(=O)O)CCN(CC(=O)O)CCN(CC(=O)O)CC1)C(C)C)C(N)=O (stereo partly drawn) [lutetium-177 labelled] — tissue uptake (BALB/c nu/nu mice, female, PC-3 xenograft tumour; intravenous, 100 pmol, 48 h, with: PA 300 µg): 2 ± 0.3 %ID/g
COC(=O)Nc1cccc(NS(=O)(=O)c2cc(Cl)cc(Cl)c2O)c1C — remaining activity (malate dehydrogenase; enzyme activity, inhibitor; 200 µM, pH 7.0, 1% DMSO, aggregation counter-screen): 84%
Cc1cc(Nc2cc(N3CCN(C)CC3)nc(Sc3ccc(NC(=O)C4CC4)cc3)n2)[nH]n1 — remaining activity (TLK2; kinase activity, KinaseProfiler; 0.03 µM, species human; relative to: control): 98%
COc1cc(Nc2ncc3c(n2)-c2ccc(Cl)cc2C(c2c(F)cccc2OC)=NC3)ccc1C(=O)O — remaining activity (MAPKAPK5; kinase activity; 1 µM): 104%
C=CC(=O)N1CCC[C@@H](n2nc(-c3ccc(Oc4ccccc4)cc3)c3c(N)ncnc32)C1 — remaining activity (TLK2; 0.1 µM): 29.5%
COc1cc(F)ccc1-c1ncnc(Nc2cccc(C[S@](C)(=N)=O)c2)n1 — remaining activity (SRPK1 (Homo sapiens, UniProt Q96SB4); kinase activity; 10 µM, with: 10 µM ATP): 119%
COc1cc(-c2cncc3c2CN(C)Cc2cc(N4CCNCC4)ccc2-3)cc(OC)c1OC — remaining activity (EPHA1 (Homo sapiens, UniProt P21709); kinase activity; 1 µM, human enzyme, with: ATP 10 µM; relative to: DMSO control): 90%
O=C(O)c1ccc(Nc2ncc3c(n2)-c2ccc(Cl)cc2C(c2c(F)cccc2F)=NC3)cc1 — remaining activity (human JAK2(h); kinase activity; 1 µM): 92%

For quick reference, copied from above:
O=C(O)c1ccc(Nc2ncc3c(n2)-c2ccc(Cl)cc2C(c2c(F)cccc2F)=NC3)cc1 — remaining activity (human JAK2(h); kinase activity; 1 µM): 92%
